Experimental data of several laboratories.
Parts stem from different laboratories: compare values within a part only.

Series 1
Target: Sal-like protein 4, full length isoform B (SALL4, Homo sapiens, UniProt Q9UJQ4-2, residues 1-616)
Technique: universal PBM
Molecule type: double-stranded DNA, one strand shown
Medium: in vitro
Concentration: not given
Notes: 8-mer, flanks averaged, mean of replicates
Direction: higher = stronger binding
Target sequence (chain): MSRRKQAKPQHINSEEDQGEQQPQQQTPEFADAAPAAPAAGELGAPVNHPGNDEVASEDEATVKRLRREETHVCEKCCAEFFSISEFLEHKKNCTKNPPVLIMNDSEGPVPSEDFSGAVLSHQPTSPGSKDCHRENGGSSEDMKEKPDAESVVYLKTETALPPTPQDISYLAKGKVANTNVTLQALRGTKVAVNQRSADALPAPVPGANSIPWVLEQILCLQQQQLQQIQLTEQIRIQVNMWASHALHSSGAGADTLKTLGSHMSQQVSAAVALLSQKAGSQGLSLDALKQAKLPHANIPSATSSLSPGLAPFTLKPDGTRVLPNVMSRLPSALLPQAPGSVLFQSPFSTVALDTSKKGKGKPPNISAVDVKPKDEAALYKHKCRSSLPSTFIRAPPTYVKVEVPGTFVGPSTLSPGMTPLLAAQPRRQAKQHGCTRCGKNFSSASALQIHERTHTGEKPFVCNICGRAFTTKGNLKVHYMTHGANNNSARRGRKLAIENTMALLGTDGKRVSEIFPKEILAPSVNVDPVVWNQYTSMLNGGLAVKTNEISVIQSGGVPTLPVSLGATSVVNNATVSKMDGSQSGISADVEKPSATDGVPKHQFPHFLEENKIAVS
| Strand | E-score |
| --- | --- |
| ATCCCTGA | -0.111 |
| CGAGTCGC | -0.257 |
| CATAATGG | 0.166 |
| CTCTACAA | 0.078 |
| CAGCCATA | 0.0435 |
| GAACGGGA | -0.163 |
| CTCAAAAC | 0.0643 |
| AGGAAGGA | 0.0582 |
| GGAAAATA | 0.336 |
| ACTTTAAT | 0.234 |
| CTATGCCA | 0.113 |
| CGTGAGGC | -0.208 |
| CGTTCATA | 0.251 |
| ATGCGTGA | 0.00035 |
| GCAAGAGC | -0.161 |
| CGTGATAG | -0.0002 |
| AACGAGCA | 0.00012 |
| GGAATGGA | -0.117 |
| CCGGGTAG | -0.28 |
| CATGACAG | -0.11 |
| AGACCTAT | 0.198 |

Series 2
Target: Histone acetyltransferase KAT6A, winged helix 2, GST fusion (KAT6A, Homo sapiens, UniProt Q92794, residues 85-181)
Technique: protein binding microarray
Molecule type: double-stranded DNA, one strand shown
Medium: in vitro
Concentration: not given
Notes: 8-mer, flanks averaged, mean of 2 arrays, mostly near background
Baseline: not given
Direction: higher = stronger binding
Residues (chain): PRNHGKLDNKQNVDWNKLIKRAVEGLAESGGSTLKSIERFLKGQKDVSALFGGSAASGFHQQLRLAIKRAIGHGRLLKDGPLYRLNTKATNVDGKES
| Strand | E-score |
| --- | --- |
| GTGGTGGA | -0.119 |
| GGTTCGCA | 0.16 |
| AGATCGCC | 0.0915 |
| GTGCCTAA | -0.0884 |
| ACTTCCGA | -0.102 |
| CACGATCC | 0.112 |
| AGCGAGAT | 0.12 |
| AGCTTGAG | -0.0694 |
| AGCGGGGA | -0.00245 |
| AACACTGA | 0.0121 |
| CATTTAGA | -0.108 |
| CCAACGGC | 0.085 |
| AGTACTGA | -0.0156 |
| TACCTGCA | -0.0301 |
| ACCGGTGC | 0.00489 |
| ATATATCC | 0.105 |
| ACATTTGC | -0.0416 |
| GCACTGAC | 0.13 |
| AAAAGGAT | 0.0105 |
| AAGGTCAA | -0.103 |
| CGGCAGCA | 0.0986 |
| ATGCAAAT | -0.0985 |
| AAGTATAT | -0.0621 |
| GCAAAGGA | 0.0735 |
| AGACTAGA | -0.275 |

Series 3
Target: RNA binding protein fox-1 homolog 2, RRM domain, GST-SBP tag (RBFOX2, Homo sapiens, UniProt O43251-10, residues 100-194)
Technique: RNA Bind-n-Seq
Molecule type: RNA
Medium: in vitro
Concentration: 365 nM
Notes: natural RNA segment, single round, ends assumed
Baseline: no-protein control
Direction: higher = stronger binding
Shared flanks, not repeated: GGGAGUUCUACAGUCCGACGAUC … UGGAAUUCUCGGGUGCCAA
Target sequence (chain): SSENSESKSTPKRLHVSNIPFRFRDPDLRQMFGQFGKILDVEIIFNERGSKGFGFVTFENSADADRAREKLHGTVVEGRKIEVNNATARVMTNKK
| Strand | RBNS enrichment (R) |
| --- | --- |
| UUUGUUUACUUUGGUUUUUUUGUUUUUAAUCUCAGAGAGAGGUGUGUUUAGUGGGCACAAGCUGUAAUAUUCAGCAAAACUUUGUCGACUGGCACUGUUUACAAGUCUGU | 0.532 |
| GCCUAAUAAACCUGUGUGCACUCCUUUAGGUCCCAGCACUUUCUUCCUAUGGGUGGUCCAGACAAAAGUAUGUCCUCCUGUAGGACGCUAGAGGGCGCUCUAGGACAGCG | 0.427 |
| AAUUAGUGAUGAUGGUGGGCGUGAUGGAAAGAAAGAGGUGAGUGGAGACUCAGCCUGGCUAUUCUUGAGCAUGGACAGUUGUUUCUCAAGGUGUCUUCUGACUCUCCUUC | 0.969 |
| GACCUGGUCCCUUAGAGCUCCAUAUCCCAGUCCCAGCCCUUCUUUGCAGCUGGGCCUCUCUAUACCCCUGGAUGAACAGCUUGCUCAGGCCCCAGGGUGGCUGCCUCGGC | 1.14 |
| GUAGGGGCCGAGGAGGGCAGAGGGUAUAGGAAGUGAGAACGAGGCCUGUGUCGCAGCAGCCCAGCAUCAAGCAUGUCACACACUGCCCUGCCACAGCCACCUCCCUCCCU | 4.69 |
| CCAAACACACAAGCUCUCAGCCACAGGCAGCUUCUCCACAGCCCCAGCUUCGCACAGGCUCCUGGAGGGCUGCCUGGGGGAGGCAGACAUGGGAGUGCCAAGGUGGCCAG | 0.241 |
| UUCUUCCCUUUUAAAAUUGUGUAAACUGCAAAUUAUAAUAUAAUUUGAAUUUAUGAUUAUUUUCCAGAAGAAAUCUUGUAAACCUGUGGAUACUCAUUAAUUCUUUUGUU | 0.644 |
| UCAGGAUUGGGAAUUGUCUUUAGUGCCGGCUGUGGAGCAAAAGGCAGCUCACCCCUGGGCAGGCGGUCCCCAUCCCCACCAGCUCGUUUUUCAGCACCCCCACCCACCUC | 1.59 |
| GGCUUAGAGGUGAAGAGCAAGACUGGCAAGCUCCAGGAUUUCAAAUCCUUCCUGCUUAAGGACUCAGAAACAAGUCAGCGUCUGGCCAACCUCAGGCAACGGGUGGAGCA | 3.41 |
| AGCCCCGCCCCCUGGAGCUGGCCCGGAUGGUUUCUGUCCCUUUGUUAUCCGUUGUCUCUGAAGUGGACAGUAUCCUUUCCUGCCCCGCCAAGCAUGCUCAGUGCCUUUUG | 5.3 |
| AGGUCUCAUCACCUCACACUUCUUGACUUCACAAAAUUGUGGCCCUGAGAUCAGUACUCCUCUCUUAAGUAUUUAUUAUUAUUAUUAUUUACUUUACCUCAAGCAGACAG | 0.317 |
| CGUCUUUAAAGGAAAAGGCCUUUUUUCCAGUCAAUCAGUCAGUCAGUCAGUCAGUCAGUCAUACUGGGAGAAGCUAGCCUUGCAUCCCUAGCACUGUCUCUUCCUGGCAG | 0.296 |

Series 4
Target: Fragile X messenger ribonucleoprotein 1, C-terminal low-complexity region (Fmr1, Mus musculus, UniProt P35922)
Technique: RNA Bind-n-Seq
Molecule type: RNA
Medium: in vitro
Concentration: 200 nM
Notes: whole 134-nt RNA, ends assumed
Together with: 150 mM LiCl
Baseline: input library
Direction: higher = stronger binding
All molecules: 7-deaza-guanosine replaces G
Shared flanks, not repeated: GGGAGUUCUACAGUCCGACGAUC … UGGAAUUCUCGGGUGUCAAGG
| Strand | log2 enrichment |
| --- | --- |
| GCAGGAAGUAAAAACAAAUGGAAAUGCUUCCGAUAGUGGCAGGGGUGGGGGUUGCUAAGGAAAGGGUGGGAUGGGAGUGGGUAAAGAGUU | 1.27 |
| GCUUAUGUAGACAUGAGGAAGAUUGGCAGUAGCCGGGGAAUGGUUUCUGCAUACCCUCGACAGCUAGAGUCAUUAAUCCGCUUAGCAGAA | 1.03 |
| GCAGGAAGUAAAAACAAAUGGAAAUGCUUCGGAUAGUGGCAGGGGUGGGGGUUGCUAAGGAAUGGGUGGGAUGGGAGUGGGUAAAGAGUU | 1.4 |
| AGUCCUGUGCUACACAUCGUAUGUACCGAAUCGGGGCCCGGGGCCCGGGGCCCGGGGAAAGUAUUAUGUUACGCCGUUCGGAUCUGCACU | -2.25 |
| GGACACAGCUUGGGCUAUGGCUUUGUGAACUACGUGACCGCGAAGGAUGCAGAGAGAGCGAUCAACACGCUGAACGGCUUGAGGCUCCAG | -2.32 |
| CCUCAAGUCCUGUGCUACACAUCGUAUGUACCGAAUCGGGGCGGGGCGGGCGGAAAGUAUUAUGUUACGCCGUUCGGAUCUGCACUUCCA | -0.767 |
| UCAAGUCCUGUGCUACACAUCGUAUGUACCGAAUCGGGCCCGGGGCCCGGCCCGGAAAGUAUUAUGUUACGCCGUUCGGAUCUGCACUUC | -2.76 |
| CUCAAGUCCUGUGCUACACAUCGUAUGUACCGAAUCGGGUUGGUUGGUUGGGGAAAGUAUUAUGUUACGCCGUUCGGAUCUGCACUUCCA | -0.375 |
| AAGUCCUGUGCUACACAUCGUAUGUACCGAAUCAAAUUUAAACCCCCAAAUUUAAAAAAGUAUUAUGUUACGCCGUUCGGAUCUGCACUU | -0.563 |
| UAACUUUAGAGGAGGAUCUGAUGGAUAUGGCAGUGGACGUGGAUUUGGGGAUGGCUAUAAUGGGUCUGGAGGAGGACCUGGAGGUGGCAA | -0.483 |
| UAACUUUAGAGGAGGAUCUUAUGGAUAUGGCAGUGGACGUGGAUUUGGGGAUGGCUAUAAUGGGUAUGGAGGAGGACCUGGAGGUGGCAA | 0.486 |

Series 5
Target: Interferon regulatory factor 5, full length, phosphomimetic (IRF5, Homo sapiens, UniProt Q13568-2, residues 1-514, S451D/S453D/S456D/S462D)
Technique: protein-binding microarray
Molecule type: double-stranded DNA, one strand shown
Medium: in vitro
Concentration: 940 nM top
Notes: 60-bp whole probe
Together with: salmon DNA 0.4 mg/ml
Baseline: random background probes
Direction: higher = stronger binding
Shared flanks, not repeated: GCCTAGCAC … GTCTTGATTCGCTTGACGCTGCTG
| Strand | fitted relative affinity |
| --- | --- |
| TCAAGTTTCTATTTTCTACTGTGCTAG | 4.21 z-score |
| TTAGGTATCCTTTTCCGTTAGTGCTAG | 0.578 z-score |
| TTACGACTGCTTATCCTTTAGTGCTAG | 0.483 z-score |
| GACGGTATCCTTCTCCTCACGTGCTAG | 0.677 z-score |
| TCAAACATCTACAATGGCACTGTGCTA | -0.0804 z-score |
| TTAGGACTGGCACTGGGTTAGTGCTAG | -0.54 z-score |
| TTAGATATCAGATTCGATTAGTGCTAG | 0.403 z-score |
| TTAGGTTCCGGCTTCGGTTAGTGCTAG | 1.34 z-score |
| TTAGGTTTCAGTATCGATTAGTGCTAG | 9.28 z-score |
| GACGATATCAGTATCGAGCCGTGCTAG | 1.21 z-score |
| TGCCTTTTTTTTTTTTTCTGGTGCTAG | 1.38 z-score |
| TGAGGACTGGGACTGGGTTAGTGCTAG | -0.656 z-score |
| GTCGGACTGCTTATCCTGACGTGCTAG | -0.423 z-score |
| TTAGCACTGGGGTATCGGTTAGTGCTA | 3.1 z-score |
| TTAGATGCCAGTTTCGATTAGTGCTAG | 7.53 z-score |
| TTAGGTATCGTTATCCTTTAGTGCTAG | 6.76 z-score |
| ATAGATTTCAGTCTCGATTAGTGCTAG | 4.09 z-score |
| ACACATCTCACTCTAATCTCGTGCTAG | 1.46 z-score |
| TTAGATTTCAGCTCCGATTAGTGCTAG | -0.00235 z-score |
| GGAGTGGGAAGCTTCGCTCCGTGCTAG | -0.308 z-score |
| TGTGGGTTTCGGTGTGGGAGGTGCTAG | 11 z-score |
| TCACATTCCAATTCTTTTACTGTGCTA | 1.54 z-score |
| GACGAAGTGGGGTATCGAGACGTGCTA | 1.17 z-score |
| GCTTTCCCCTTGGACTCTTTGTGCTAG | 0.731 z-score |
| TCACGTATCTTCATTGTACTGTGCTAG | 0.592 z-score |

For quick reference, copied from above (series 1):
| Strand | E-score |
| --- | --- |
| CGTGATAG | -0.0002 |
| AGACCTAT | 0.198 |
| GCAAGAGC | -0.161 |
| AGGAAGGA | 0.0582 |
| CGAGTCGC | -0.257 |
| CATGACAG | -0.11 |
